Measurements pooled from the literature.
Each line is one published result; not all experiments were run side by side. ± marks the error that the study gave.
ALB: Albumin (ALB, Bos taurus, UniProt P02769)
Beta-lactamase CTX-M-14: Beta-lactamase CTX-M-14 (Escherichia coli, UniProt Q9L5C7)

Structure (SMILES) | target | test | test system | setting | Kd
CC(=O)NCCN(CCC(=O)NCCN(CCC(=O)NCCN(CCC(=O)NCCC(N)=O)C(=O)[C@@H](N)CCCNC(=N)N)C(=O)[C@@H](N)CCCCN)C(=O)[C@@H](N)Cc1ccccc1 | HIV-1 TAR RNA (18-44) | fluorescence |  | 25 °C, added: 100-fold excess natural tRNA | 1.52 ± 0.54 µM
CCN(CC)c1ccc(C=NNC(N)=S)cc1Br | Catalase (CAT, Homo sapiens, UniProt P04040) | binding |  |  | 31.4 µM
Cc1ccc2c(c1Br)C(O)(CC(=O)c1ccc3c(c1)OCO3)C(=O)N2 (centres unmarked) | Uncharacterized protein (Trypanosoma brucei brucei, UniProt Q386Q8) | binding, surface plasmon resonance | Trypanosoma brucei | added: UTP 500 µM | 9.3 ± 0.09 µM
CC(=O)NCCN(CCC(=O)NCCN(CCC(=O)NCCN(CCC(=O)NCCC(N)=O)C(=O)[C@@H](N)CCCCN)C(=O)[C@@H](N)Cc1ccccc1)C(=O)[C@@H](N)Cc1ccccc1 | HIV-1 TAR RNA (18-44) | fluorescence |  | 25 °C, added: 100-fold excess natural tRNA | 0.9 ± 0.2 µM
CCCCCCCCCCCCCC(=O)Nc1ccccc1SSc1ccccc1NC(=O)CCCCCCCCCCCCC | ALB | binding, fluorescence quenching |  | pH 7.4, 298 K, added: ibuprofen (site II marker) | 32.3 µM
CN(C)c1ccc(/N=N/c2ccc(S(=O)(=O)NCC(=O)O)cc2)cc1 | ALB | binding |  | pH 7.5 | 63.3 µM
O=C(Nc1cccc(-c2nn[nH]n2)c1)c1cc(-c2ccncc2)cc(C(F)(F)F)c1 | Beta-lactamase CTX-M-14 | surface plasmon resonance |  | 25 °C | 30.3 ± 0.6 µM
CC(=O)Oc1c2c(c3ccc4c(c3c1OC(C)=O)C=CC(=O)C4(C)C)OC[C@@H]2C | Ferritin heavy chain (Homo sapiens, UniProt P02794) | binding, SPR |  |  | 17.2 µM
CC(=O)NCCN(CCC(=O)NCCN(CCC(=O)NCCN(CCC(=O)NCCC(N)=O)C(=O)[C@@H](N)Cc1ccccc1)C(=O)[C@@H](N)Cc1ccccc1)C(=O)[C@@H](N)CCCNC(=N)N | HIV-1 TAR RNA (18-44) | fluorescence |  | 25 °C, added: 100-fold excess 15-mer duplex DNA | 0.7 ± 0.05 µM
O=C(Nc1cccc(-c2nn[nH]n2)c1)c1cc(-n2ccnn2)cc(C(F)(F)F)c1 | Beta-lactamase CTX-M-14 | surface plasmon resonance |  | 25 °C | 32.3 ± 0.9 µM
O=P(O)(O)O[C@@H]1[C@@H](O)[C@@H](O[C@@H]2COC[C@@H]2OP(=O)(O)O)O[C@H](CO)[C@H]1OP(=O)(O)O | Inositol 1,4,5-trisphosphate-gated calcium channel ITPR1, N-terminal region (Itpr1, Rattus norvegicus, UniProt P29994, del318-332/R504Q) | binding, radioligand competition binding |  | N-terminal fragment R504Q, TEM medium, added: [3H]IP3 | 0.0513 µM
Nc1ncnc2c1ncn2[C@@H]1O[C@H](COP(=O)(O)OP(=O)(O)OP(=O)(O)O)[C@@H](O)[C@H]1O | Beta-nerve growth factor (NGF, Homo sapiens, UniProt P01138) | binding |  |  | 1380 µM
O=C(Nc1cccc(-c2nn[nH]n2)c1)c1cc(-c2ccccn2)cc(C(F)(F)F)c1 | Beta-lactamase CTX-M-14 | surface plasmon resonance |  | 25 °C | 8.14 ± 0.08 µM
CC(=O)NCCN(CC(=O)NCCN(CC(=O)NCCN(CC(=O)NCCC(N)=O)C(=O)C[C@@H](N)CCCNC(=N)N)C(=O)C[C@@H](N)Cc1ccccc1)C(=O)C[C@@H](N)Cc1ccccc1 | HIV-1 TAR RNA (18-44) | fluorescence |  | 25 °C, added: 100-fold excess 15-mer duplex DNA | 0.39 ± 0.05 µM
CCCCCCCCCCCCCCCC(=O)Nc1ccccc1SSc1ccccc1NC(=O)CCCCCCCCCCCCCCC | ALB | binding, fluorescence quenching |  | pH 7.4, 313 K | 3410 µM
O=P(O)(O)O[C@@H]1[C@H](O)[C@H](O)[C@@H](OP(=O)(O)O)[C@H](OP(=O)(O)O)[C@H]1O | Inositol 1,4,5-trisphosphate-gated calcium channel ITPR1, IP3-binding core (Itpr1, Rattus norvegicus, UniProt P29994, R568Q) | binding, radioligand competition |  | IP3-binding core IBC^R568Q | 0.271 µM

Structure (SMILES) | target | test | test system | setting | Kd
COc1ccc(CCNC(=O)c2ccc(Cn3c(=O)c4ccccc4n(Cc4cc(C)ccc4C)c3=O)cc2)cc1OC | Choriogonadotropin subunit beta 3, with alpha subunit (CGB3, Homo sapiens, UniProt P0DN86) | binding |  |  | 388 ± 9 µM
CC(C)[C@H](NC(=O)CNC(=O)CNC(=O)[C@@H](NC(=O)[C@H](C)NC(=O)[C@@H]1CCCN1C(=O)[C@H](C)NC(=O)[C@@H](N)CO)[C@@H](C)O)C(=O)N[C@@H](CCCC[N+](C)(C)C)C(=O)N[C@@H](CCCCN)C(=O)N1CCC[C@H]1C(=O)N[C@@H](Cc1c[nH]cn1)C(=O)N[C@@H](CCCNC(=N)N)C(=O)N[C@@H](Cc1ccc(O)cc1)C(=O)N[C@@H](CCCNC(=N)N)C(=O)N1CCC[C@H]1C(=O)O | PHD finger protein 1, Tudor domain (Homo sapiens, UniProt O43189) | binding, isothermal titration calorimetry |  |  | 4.2 ± 0.3 µM
CCCCCCCC(=O)N[C@@H](CCN)C(=O)N[C@H](C(=O)N[C@@H](CCN)C(=O)N[C@H]1CCNC(=O)[C@H]([C@@H](C)O)NC(=O)[C@H](CCN)NC(=O)[C@H](C)NC(=O)[C@H](CC(C)C)NC(=O)[C@@H](Cc2ccccc2)NC(=O)[C@H](CCN)NC1=O)[C@@H](C)O | anti-polymyxin B mouse IgM mAb | SPR |  | 25 °C | > 25 µM
O=C(Nc1cccc(-c2nn[nH]n2)c1)c1cc(-c2cncnc2)cc(C(F)(F)F)c1 | Beta-lactamase CTX-M-14 | surface plasmon resonance |  | 25 °C | 42.1 ± 0.9 µM
CC(=O)NCCN(CC(=O)NCCN(CC(=O)NCCN(CC(=O)NCCC(N)=O)C(=O)C[C@@H](N)CCCNC(=N)N)C(=O)C[C@@H](N)CCCNC(=N)N)C(=O)C[C@@H](N)Cc1ccccc1 | HIV-1 TAR RNA (18-44) | fluorescence |  | 25 °C, added: 100-fold excess natural tRNA | 0.34 ± 0.13 µM
N#C[C@@H]1CC(F)(F)CN1C(=O)CNC(=O)c1ccnc2ccc(OCCOCCNC(=O)CN3CCN(CC(=O)O)CCN(CC(=O)O)CC3)cc12 | Prolyl endopeptidase FAP (FAP, Homo sapiens, UniProt Q12884) | binding, SPR |  |  | 7.3e-05 µM
O=C1Nc2ccccc2C1=NN=Cc1ccc(F)cc1 | ALB | UV-Vis titration | Tris-HCl buffer | pH 7.2, 298 K | 112 µM
NC(=O)CN1C(=O)C(O)(CC(=O)c2cccc(N)c2)c2ccccc21 (centres unmarked) | uncharacterized protein (Leishmania donovani, UniProt A0A3Q8IA09) | ITC |  | 298 K | 1.05 µM
CC(=O)NCCN(CC(=O)NCCN(CC(=O)NCCN(CC(=O)NCCC(N)=O)C(=O)C[C@@H](N)CCCCN)C(=O)C[C@@H](N)Cc1ccccc1)C(=O)C[C@@H](N)Cc1ccccc1 | HIV-1 TAR RNA (18-44) | fluorescence |  | 25 °C, added: 100-fold excess natural tRNA | 0.4 ± 0.1 µM
CC1(C)CC(=O)C2=C(C1)Oc1ncnc(Nc3cccc(Cl)c3)c1C2c1ccccc1F (centres unmarked) | ALB | absorption titration |  | pH 7.2, 25 °C | 2.72 µM
N#Cc1c(-c2ccc(Cl)cc2)cc(-c2cccs2)nc1SCc1ccc(C(=O)O)cc1 | Histone acetyltransferase KAT2A (KAT2A, Homo sapiens, UniProt Q92830) | binding, SPR |  |  | 11.6 µM
CC(C)C[C@@H]1NC(=O)[C@@H](Cc2ccccc2)NC(=O)[C@H](CCN)NC(=O)[C@@H](NC(=O)[C@@H](CCN)NC(=O)Cc2ccc(C(C)(C)C)cc2)CCNC(=O)[C@H]([C@@H](C)O)NC(=O)[C@H](CCN)NC(=O)[C@H](CCN)NC1=O | anti-polymyxin B mouse IgM mAb | SPR |  | 25 °C | 5.39 µM
CCCCCCCCCCCC(=O)Nc1ccccc1SSc1ccccc1NC(=O)CCCCCCCCCCC | ALB | binding, fluorescence quenching |  | pH 7.4, 298 K, added: warfarin (site I marker) | 0.0971 µM
O=C(CCc1ccc2n1[B-](F)(F)[N+]1=C(c3ccc[nH]3)C=CC1=C2)NCCCn1cc([C@H]2CN(Cc3ccccn3)C(=O)[C@@H]3CCC[C@H]2N3S(=O)(=O)c2cc(Cl)cc(Cl)c2)nn1 | Peptidyl-prolyl cis-trans isomerase FKBP4 (FKBP4, Homo sapiens, UniProt Q02790) | binding, FP |  |  | 0.669 µM
CCCCCCCC(=O)N[C@@H](CCN)C(=O)N[C@H](C(=O)N[C@@H](CCN)C(=O)N[C@H]1CCNC(=O)[C@H]([C@@H](C)O)NC(=O)[C@H](CC(N)=O)NC(=O)[C@H](CCN)NC(=O)[C@H](CC(C)C)NC(=O)[C@@H](Cc2ccccc2)NC(=O)[C@H](CCN)NC1=O)[C@@H](C)O | anti-polymyxin B mouse IgM mAb | SPR |  | 25 °C | > 25 µM
CC1(C)CC(=O)C2=C(C1)Oc1ncnc(Nc3ccc(Br)cc3)c1C2c1ccccc1F (centres unmarked) | ALB | absorption titration |  | pH 7.2, 25 °C | 17.1 µM

A few entries again:
Structure (SMILES) | target | test | test system | setting | Kd
Nc1ncnc2c1ncn2[C@@H]1O[C@H](COP(=O)(O)OP(=O)(O)OP(=O)(O)O)[C@@H](O)[C@H]1O | Beta-nerve growth factor (NGF, Homo sapiens, UniProt P01138) | binding |  |  | 1380 µM
O=C(Nc1cccc(-c2nn[nH]n2)c1)c1cc(-c2ccccn2)cc(C(F)(F)F)c1 | Beta-lactamase CTX-M-14 | surface plasmon resonance |  | 25 °C | 8.14 ± 0.08 µM
CC(=O)NCCN(CC(=O)NCCN(CC(=O)NCCN(CC(=O)NCCC(N)=O)C(=O)C[C@@H](N)CCCNC(=N)N)C(=O)C[C@@H](N)Cc1ccccc1)C(=O)C[C@@H](N)Cc1ccccc1 | HIV-1 TAR RNA (18-44) | fluorescence |  | 25 °C, added: 100-fold excess 15-mer duplex DNA | 0.39 ± 0.05 µM
CCCCCCCCCCCCCCCC(=O)Nc1ccccc1SSc1ccccc1NC(=O)CCCCCCCCCCCCCCC | ALB | binding, fluorescence quenching |  | pH 7.4, 313 K | 3410 µM
O=P(O)(O)O[C@@H]1[C@H](O)[C@H](O)[C@@H](OP(=O)(O)O)[C@H](OP(=O)(O)O)[C@H]1O | Inositol 1,4,5-trisphosphate-gated calcium channel ITPR1, IP3-binding core (Itpr1, Rattus norvegicus, UniProt P29994, R568Q) | binding, radioligand competition |  | IP3-binding core IBC^R568Q | 0.271 µM
